Measured values gathered from unrelated publications.
B1: TFC8 1-588 (Saccharomyces cerevisiae, UniProt Q12308); chain MKLLKDLLVDRKEFEDWKNNLTWARDGTLYLTTFPDISIGQPKYAKDINCNSKNLFHVKEFPLEFENKLDFELAQQNGLLNSQPVCYPRVCKPSPIDDWMAVLSNNGNVSVFKDNKMLTNLDSKGNLSSRTYHCFEWNPIESSIVVGNEDGELQFFSIRKNSENTPEFYFESSIRLSDAGSKDWVTHIVWYEDVLVAALSNNSVFSMTVSASSHQPVSRMIQNASRRKITDLKIVDYKVVLTCPGYVHKIDLKNYSISSLKTGSLENFHIIPLNHEKESTILLMSNKTSYKVLLEDELHVTADNIIAPYLEKKFKKWSTIWNEFNNYETTLVIHGISLSPDGYSIAIVYDMERVAFKYKIASEQSFNIMFAPLYHTWTISERAVGLAWYQTYQIYNQSLPKLPENFSMNKKLLNGNYPISLDFQSYLNALMKSEEMRIIMFLNMTIDKPSILSFLEALYEYAINKKSELTNSFDLACVLSIAAILKREAPIYNGTLLMKNSFLEETFNLESFTADPETVTSTTNNTWKRCGVTLLPILTTHVKICPVSKQRVIDIKRDDLNDYGWFTRGLLERFNEISVYCGTTLEVM
B2: AEBP2 407-503 (Homo sapiens, UniProt Q6ZN18-2); sequence looked up; chain RHRAICFNLSAHIESLGKGHSVVFHSTVIAKRKEDSGKIKLLLHWMPEDILPDVWVNESERHQLKTKVVHLSKLPKDTALLLDPNIYRTMPQKRLKR
B3: MARCHF2 (Homo sapiens, UniProt Q9P0N8); sequence looked up; chain MTTGDCCHLPGSLCDCSGSPAFSKVVEATGLGPPQYVAQVTSRDGRLLSTVIRALDTPSDGPFCRICHEGANGECLLSPCGCTGTLGAVHKSCLEKWLSSSNTSYCELCHTEFAVEKRPRPLTEWLKDPGPRTEKRTLCCDMVCFLFITPLAAISGWLCLRGAQDHLRLHSQLEAVGLIALTIALFTIYVLWTLVSFRYHCQLYSEWRKTNQKVRLKIREADSPEGPQHSPLAAGLLKKVAEETPV
B4: RB1CC1 1450-1594 (Homo sapiens, UniProt Q8TDY2); chain HMLSEEKQRIMLLERTLQLKEEENKRLNQRLMSQSMSSVSSRHSEKIAIRDFQVGDLVLIILDERHDNYVLFTVSPTLYFLHSESLPALDLKPGEGASGASRRPWVLGKVMEKEYCQAKKAQNRFKVPLGTKFYRVKAVSWNKKV
B5: NECTIN2 32-160 (Homo sapiens, UniProt Q92692); sequence looked up; chain QDVRVQVLPEVRGQLGGTVELPCHLLPPVPGLYISLVTWQRPDAPANHQNVAAFHPKMGPSFPSPKPGSERLSFVSAKQSTGQDTEAELQDATLALHGLTVEDEGNYTCEFATFPKGSVRGMTWLRVIA
B6: bcsC 24-709 (Escherichia coli, UniProt P37650); chain APTAQQQLLEQVRLGEATHREDLVQQSLYRLELIDPNNPDVVAARFRSLLRQGDIDGAQKQLDRLSQLAPSSNAYKSSRTTMLLSTPDGRQALQQARLQATTGHAEEAVASYNKLFNGAPPEGDIAVEYWSTVAKIPARRGEAINQLKRINADAPGNTGLQNNLALLLFSSDRRDEGFAVLEQMAKSNAGREGASKIWYGQIKDMPVSDASVSALKKYLSIFSDGDSVAAAQSQLAEQQKQLADPAFRARAQGLAAVDSGMAGKAIPELQQAVRANPKDSEALGALGQAYSQKGDRANAVANLEKALALDPHSSNNDKWNSLLKVNRYWLAIQQGDAALKANNPDRAERLFQQARNVDNTDSYAVLGLGDVAMARKDYPAAERYYQQTLRMDSGNTNAVRGLANIYRQQSPEKAEAFIASLSASQRRSIDDIERSLQNDRLAQQAEALENQGKWAQAAALQRQRLALDPGSVWITYRLSQDLWQAGQRSQADTLMRNLAQQKSNDPEQVYAYGLYLSGHDQDRAALAHINSLPRAQWNSNIQELVNRLQSDQVLETANRLRESGKEAEAEAMLRQQPPSTRIDLTLADWAQQRRDYTAARAAYQNVLTREPANADAILGLTEVDIAAGDKAAARSQLAKLPATDNASLNTQRRVALAQAQLGDTAAAQRTFNKLIPQAKSQPPSME
B7: RAD18 267-402 (Homo sapiens, UniProt Q9NS91); sequence looked up; chain IQGNKQQLIKRHQEFVHMYNAQCDALHPKSAAEIVREIENIEKTRMRLEASKLNESVMVFTKDQTEKEIDEIHSKYRKKHKSEFQLLVDQARKGYKKIAGMSQKTVTITKEDESTEKLSSVCMGQEDNMTSVTNHF
B8: Pard6b 254-371 (Mus musculus, UniProt Q9JK83); chain NVVRNSRTSGSSSQSTDNSLLGFPQQVEASFEPEDQDSDEDDIIIEDSGEPQQIPKATPAQSLESLTQIELSFESGQNGFSPPQDTSLVPVPGSLDTELESRAPDQKLLEEDGTIITL
B9: HDAC4 155-220 (Homo sapiens, UniProt P56524); sequence looked up; chain LKNKEKGKESAVASTEVKMKLQEFVLNKKKALAHRNLNHCISSDPRYWYGKTQHSSLDQSSPPQSG
B10: BMI1 (Homo sapiens, UniProt P35226); chain MHRTTRIKITELNPHLMCVLCGGYFIDATTIIECLHSFCKTCIVRYLETSKYCPICDVQVHKTRPLLNIRSDKTLQDIVYKLVPGLFKNEMKRRRDFYAAHPSADAANGSNEDRGEVADEDKRIITDDEIISLSIEFFDQNRLDRKVNKDKEKSKEEVNDKRYLRCPAAMTVMHLRKFLRSKMDIPNTFQIDVMYEEEPLKDYYTLMDIAYIYTWRRNGPLPLKYRVRPTCKRMKISHQRDGLTNAGELESDSGSDKANSPAGGIPSTSSCLPSPSTPVQSPHPQFPHISSTMNGTSNSPSGNHQSSFANRPRKSSVNGSSATSSG
B11: Notch1 221-526 (Mus musculus, UniProt Q01705); sequence looked up; chain PCSPSPCQNGGTCRPTGDTTHECACLPGFAGQNCEENVDDCPGNNCKNGGACVDGVNTYNCRCPPEWTGQYCTEDVDECQLMPNACQNGGTCHNTHGGYNCVCVNGWTGEDCSENIDDCASAACFQGATCHDRVASFYCECPHGRTGLLCHLNDACISNPCNEGSNCDTNPVNGKAICTCPSGYTGPACSQDVDECALGANPCEHAGKCLNTLGSFECQCLQGYTGPRCEIDVNECISNPCQNDATCLDQIGEFQCICMPGYEGVYCEINTDECASSPCLHNGHCMDKINEFQCQCPKGFNGHLCQ
B12: gene 32 protein 22-301 (Enterobacteria phage T4, UniProt P03695); sequence looked up; chain GFSSEDKGEWKLKLDNAGNGQAVIRFLPSKNDEQAPFAILVNHGFKKNGKWYIETCSSTHGDYDSCPVCQYISKNDLYNTDNKEYSLVKRKTSYWANILVVKDPAAPENEGKVFKYRFGKKIWDKINAMIAVDVEMGETPVDVTCPWEGANFVLKVKQVSGFSNYDESKFLNQSAIPNIDDESFQKELFEQMVDLSEMTSKDKFKSFEELNTKFGQVMGTAVMGGAAATAAKKADKVADDLDAFNVDDFNTKTEDDFMSSSSGSSSSADDTDLDDLLNDL
B13: tnsD 1-318 K30A/R40D (Escherichia coli, UniProt P13991); sequence looked up; chain MRNFPVPYSNELIYSTIARAGVYQGIVSPAQLLDEVYGNDKVVATLGLPSHLGVIARHLHQTGRYAVQQLIYEHTLFPLYAPFVGKERRDEAIRLMEYQAQGAVHLMLGVAASRVKSDNRFRYCPDCVALQLNRYGEAFWQRDWYLPALPYCPKHGALVFFDRAVDDHRHQFWALGHTELLSDYPKDSLSQLTALAAYIAPLLDAPRAQELSPSLEQWTLFYQRLAQDLGLTKSKHIRHDLVAERVRQTFSDEALEKLDLKLAENKDTCWLKSIFRKHRKAFSYLQHSIVWQALLPKLTVIEALQQASALTEHSITTR
B14: INF2 941-1249 (Homo sapiens, UniProt Q27J81-1); FITC label; chain KQQLAEEEARRPRGEDGKPVRKGPGKQEEVCVIDALLADIRKGFQLRKTARGRGDTDGGSKAASMDPPRATEPVATSNPAGDPVGSTRCPASEPGLDATTASESRGWDLVDAVTPGPQPTLEQLEEGGPRPLERRSSWYVDASDVLTTEDPQCPQPLEGAWPVTLGDAQALKPLKFSSNQPPAAGSSRQDAKDPTSLLGVLQAEADSTSEGLEDAVHSRGARPPAAGPGGDEDEDEEDTAPESALDTSLDKSFSEDAVTDSSGSGTLPRARGRASKGTGKRRKKRPSRSQEEVPPDSDDNKTKKLCVIQ
B15: TOMM20 cytoplasmic domain, 25-145 (Homo sapiens, UniProt Q15388); N-terminal His-SUMO tag; chain CDRKRRSDPNFKNRLRERRKKQKLAKERAGLSKLPDLKDAEAVQKFFLEEIQLGEELLAQGEYEKGVDHLTNAIAVCGQPQQLLQVLQQTLPPPVFQMLLTKLPTISQRIVSAQSLAEDDVE
B16: CCDC32 (Mus musculus, UniProt Q8BS39); chain MKMFESLDSSATKSGRDLWAEICSCLPSPAQEDVSDNAFSDSFMDSHPAGESHTAAADSAVQPAGKPWAPLHDSEVYLASLEKKLRRIKGLNEEVTSKDMLRTLAQAKKECWDRFLQEKLASEFFVDGLDSDERTLEHFKRWLQPDKVAISTEEVQFLIPPESQAEKPEAGDKPAAAEQ
Chain of UniProt P18858 (whole entry, unmodified, looked up): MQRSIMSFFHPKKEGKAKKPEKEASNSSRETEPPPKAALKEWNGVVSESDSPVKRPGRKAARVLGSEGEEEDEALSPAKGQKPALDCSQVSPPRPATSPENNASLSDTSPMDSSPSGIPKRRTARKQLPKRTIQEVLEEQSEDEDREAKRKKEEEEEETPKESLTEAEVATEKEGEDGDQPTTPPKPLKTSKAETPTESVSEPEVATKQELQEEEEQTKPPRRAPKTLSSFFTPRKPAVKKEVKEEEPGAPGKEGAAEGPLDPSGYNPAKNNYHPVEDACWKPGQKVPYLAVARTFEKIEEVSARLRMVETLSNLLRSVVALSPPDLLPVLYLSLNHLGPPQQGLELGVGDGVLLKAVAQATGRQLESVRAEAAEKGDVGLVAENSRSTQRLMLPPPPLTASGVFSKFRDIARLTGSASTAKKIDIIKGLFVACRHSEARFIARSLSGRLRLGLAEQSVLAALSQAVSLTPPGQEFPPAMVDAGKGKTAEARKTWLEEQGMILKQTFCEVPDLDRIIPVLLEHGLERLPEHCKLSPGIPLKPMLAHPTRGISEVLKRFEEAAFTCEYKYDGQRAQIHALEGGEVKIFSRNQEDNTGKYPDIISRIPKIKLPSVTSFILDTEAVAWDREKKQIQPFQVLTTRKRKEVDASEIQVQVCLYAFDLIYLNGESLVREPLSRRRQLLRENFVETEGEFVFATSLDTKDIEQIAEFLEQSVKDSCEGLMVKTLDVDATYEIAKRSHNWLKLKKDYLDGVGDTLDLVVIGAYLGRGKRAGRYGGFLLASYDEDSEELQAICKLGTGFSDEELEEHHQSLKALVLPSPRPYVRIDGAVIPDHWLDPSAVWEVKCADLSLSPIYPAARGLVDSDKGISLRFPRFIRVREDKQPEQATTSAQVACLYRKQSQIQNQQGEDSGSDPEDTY
Chain of UniProt P04975 (whole entry, looked up): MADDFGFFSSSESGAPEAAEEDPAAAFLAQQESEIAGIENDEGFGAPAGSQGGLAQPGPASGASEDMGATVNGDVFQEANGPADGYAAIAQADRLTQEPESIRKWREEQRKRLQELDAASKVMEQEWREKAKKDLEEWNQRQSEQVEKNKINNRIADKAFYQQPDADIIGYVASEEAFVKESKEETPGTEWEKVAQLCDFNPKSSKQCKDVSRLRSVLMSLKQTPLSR
Chain of UniProt P49951 (whole entry, looked up): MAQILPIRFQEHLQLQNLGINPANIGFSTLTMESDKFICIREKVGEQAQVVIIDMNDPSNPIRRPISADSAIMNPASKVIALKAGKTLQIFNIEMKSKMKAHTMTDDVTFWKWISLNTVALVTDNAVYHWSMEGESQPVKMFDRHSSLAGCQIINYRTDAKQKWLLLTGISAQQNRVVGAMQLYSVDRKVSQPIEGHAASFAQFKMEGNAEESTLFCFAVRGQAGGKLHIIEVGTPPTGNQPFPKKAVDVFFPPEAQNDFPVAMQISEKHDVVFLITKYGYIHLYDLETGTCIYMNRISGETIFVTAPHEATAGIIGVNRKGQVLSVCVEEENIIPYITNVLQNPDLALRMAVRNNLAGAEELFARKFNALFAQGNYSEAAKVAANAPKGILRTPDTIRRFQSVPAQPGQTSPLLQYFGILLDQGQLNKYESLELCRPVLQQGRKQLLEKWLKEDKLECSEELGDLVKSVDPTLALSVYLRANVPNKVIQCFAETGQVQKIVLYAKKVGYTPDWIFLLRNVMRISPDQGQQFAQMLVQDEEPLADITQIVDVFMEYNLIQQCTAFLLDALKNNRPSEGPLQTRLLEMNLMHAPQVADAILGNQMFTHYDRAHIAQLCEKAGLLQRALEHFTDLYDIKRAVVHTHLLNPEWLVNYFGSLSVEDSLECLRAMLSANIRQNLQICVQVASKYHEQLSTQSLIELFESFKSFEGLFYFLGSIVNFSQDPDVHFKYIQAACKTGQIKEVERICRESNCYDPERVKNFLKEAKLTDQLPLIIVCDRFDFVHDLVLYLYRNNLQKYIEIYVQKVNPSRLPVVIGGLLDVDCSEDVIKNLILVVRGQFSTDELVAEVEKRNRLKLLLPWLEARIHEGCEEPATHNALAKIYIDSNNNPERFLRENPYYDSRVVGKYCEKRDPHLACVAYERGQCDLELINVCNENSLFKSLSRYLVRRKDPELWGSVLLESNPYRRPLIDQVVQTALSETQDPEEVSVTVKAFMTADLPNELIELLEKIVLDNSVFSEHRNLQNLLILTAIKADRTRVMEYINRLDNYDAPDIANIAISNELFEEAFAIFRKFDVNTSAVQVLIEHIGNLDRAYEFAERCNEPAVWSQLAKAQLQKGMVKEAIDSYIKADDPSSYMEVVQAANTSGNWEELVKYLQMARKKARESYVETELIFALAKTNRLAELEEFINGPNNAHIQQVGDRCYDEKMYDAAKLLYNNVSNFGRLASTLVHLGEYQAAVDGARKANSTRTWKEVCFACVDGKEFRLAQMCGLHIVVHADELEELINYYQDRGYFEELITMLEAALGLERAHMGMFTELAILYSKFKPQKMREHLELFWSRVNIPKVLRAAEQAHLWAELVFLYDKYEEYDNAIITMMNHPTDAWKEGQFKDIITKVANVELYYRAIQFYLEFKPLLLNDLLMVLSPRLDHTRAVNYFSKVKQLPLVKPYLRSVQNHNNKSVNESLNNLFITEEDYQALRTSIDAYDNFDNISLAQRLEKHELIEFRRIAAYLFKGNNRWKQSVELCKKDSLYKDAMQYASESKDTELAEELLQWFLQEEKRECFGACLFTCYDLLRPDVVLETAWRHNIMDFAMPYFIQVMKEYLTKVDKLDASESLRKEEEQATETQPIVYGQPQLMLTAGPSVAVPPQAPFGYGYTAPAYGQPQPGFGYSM
Chain of UniProt Q9T074 (whole entry, unmodified, looked up): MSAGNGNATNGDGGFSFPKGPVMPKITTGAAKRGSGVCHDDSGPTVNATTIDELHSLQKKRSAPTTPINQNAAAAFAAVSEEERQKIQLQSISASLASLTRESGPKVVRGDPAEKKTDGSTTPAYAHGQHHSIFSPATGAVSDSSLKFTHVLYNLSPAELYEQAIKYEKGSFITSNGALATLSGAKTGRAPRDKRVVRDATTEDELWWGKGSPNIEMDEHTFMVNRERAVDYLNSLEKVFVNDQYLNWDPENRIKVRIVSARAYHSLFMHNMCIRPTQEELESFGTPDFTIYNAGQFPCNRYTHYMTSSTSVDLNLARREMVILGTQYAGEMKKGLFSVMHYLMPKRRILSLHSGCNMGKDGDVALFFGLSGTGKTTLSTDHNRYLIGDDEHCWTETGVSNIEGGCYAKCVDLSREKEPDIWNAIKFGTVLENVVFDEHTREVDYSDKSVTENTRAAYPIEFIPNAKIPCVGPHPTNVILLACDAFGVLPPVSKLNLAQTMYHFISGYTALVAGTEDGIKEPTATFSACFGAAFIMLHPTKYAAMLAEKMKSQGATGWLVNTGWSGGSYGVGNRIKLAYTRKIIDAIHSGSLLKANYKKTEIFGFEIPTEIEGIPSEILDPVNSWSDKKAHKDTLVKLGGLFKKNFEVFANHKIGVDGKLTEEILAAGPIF
Chain of UniProt Q39011 (whole entry, looked up): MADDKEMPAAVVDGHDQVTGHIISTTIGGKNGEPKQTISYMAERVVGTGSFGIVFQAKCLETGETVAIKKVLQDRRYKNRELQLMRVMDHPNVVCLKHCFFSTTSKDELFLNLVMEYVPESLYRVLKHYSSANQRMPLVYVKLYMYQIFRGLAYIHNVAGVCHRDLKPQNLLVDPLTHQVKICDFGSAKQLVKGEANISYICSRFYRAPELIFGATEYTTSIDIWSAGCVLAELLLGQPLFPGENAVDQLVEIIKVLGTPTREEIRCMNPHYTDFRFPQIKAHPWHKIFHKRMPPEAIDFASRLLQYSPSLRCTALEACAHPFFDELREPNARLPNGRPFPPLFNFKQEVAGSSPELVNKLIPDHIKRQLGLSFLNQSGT
Chain of UniProt Q9NR61 (whole entry, unmodified, looked up): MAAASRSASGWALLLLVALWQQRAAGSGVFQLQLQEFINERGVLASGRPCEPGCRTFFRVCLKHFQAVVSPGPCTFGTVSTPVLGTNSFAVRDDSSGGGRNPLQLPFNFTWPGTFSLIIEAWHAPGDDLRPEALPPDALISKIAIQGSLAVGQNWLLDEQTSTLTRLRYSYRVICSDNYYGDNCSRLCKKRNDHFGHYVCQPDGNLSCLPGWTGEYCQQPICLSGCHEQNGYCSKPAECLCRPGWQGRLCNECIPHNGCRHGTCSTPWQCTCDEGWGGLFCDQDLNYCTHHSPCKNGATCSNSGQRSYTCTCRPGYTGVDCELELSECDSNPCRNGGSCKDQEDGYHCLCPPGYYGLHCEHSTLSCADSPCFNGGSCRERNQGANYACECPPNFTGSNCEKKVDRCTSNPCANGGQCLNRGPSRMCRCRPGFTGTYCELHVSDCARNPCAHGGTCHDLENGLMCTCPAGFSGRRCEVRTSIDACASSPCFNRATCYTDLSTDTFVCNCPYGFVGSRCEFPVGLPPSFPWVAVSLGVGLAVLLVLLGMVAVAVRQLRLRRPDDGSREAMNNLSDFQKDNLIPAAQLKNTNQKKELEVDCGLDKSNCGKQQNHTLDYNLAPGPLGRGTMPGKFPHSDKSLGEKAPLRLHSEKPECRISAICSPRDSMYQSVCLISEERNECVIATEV
Chain of UniProt Q02078 (whole entry, looked up): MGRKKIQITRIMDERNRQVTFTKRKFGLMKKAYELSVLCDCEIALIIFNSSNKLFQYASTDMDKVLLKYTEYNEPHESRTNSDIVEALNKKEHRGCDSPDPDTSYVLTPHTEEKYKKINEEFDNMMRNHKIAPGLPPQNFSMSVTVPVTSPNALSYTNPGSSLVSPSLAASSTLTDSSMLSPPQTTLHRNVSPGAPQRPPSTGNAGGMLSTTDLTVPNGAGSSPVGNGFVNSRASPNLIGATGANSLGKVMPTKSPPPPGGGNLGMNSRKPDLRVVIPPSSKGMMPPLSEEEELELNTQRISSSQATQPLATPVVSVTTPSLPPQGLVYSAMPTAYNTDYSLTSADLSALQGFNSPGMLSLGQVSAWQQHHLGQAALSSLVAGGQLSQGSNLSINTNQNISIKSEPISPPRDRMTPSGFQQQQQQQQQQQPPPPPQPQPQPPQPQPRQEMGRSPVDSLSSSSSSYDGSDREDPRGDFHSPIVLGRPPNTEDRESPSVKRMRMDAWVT

Under binding, `RAD1 (Homo sapiens, UniProt O60671)` is recorded as “binds” (LIG1 233-919 (Homo sapiens, UniProt P18858); pull-down; 1 hr, 4 °C).
For `B1 (TFC8 1-588)`, binding read “binds” (TFC3 1-1160 (Saccharomyces cerevisiae, UniProt P34111); cryo-EM).
Under binding, `B2 (AEBP2 407-503)` is recorded as “binds” (SUZ12/RBBP4 SUZ12 76-545 (Homo sapiens); pull-down; competition).
`B3 (MARCHF2)` — result for binding: “binds” (MARCH8 (Homo sapiens, UniProt Q5T0T0); pull-down).
`B4 (RB1CC1 1450-1594)`: binding “binds” (CALCOCO2 128-316 (Homo sapiens, UniProt Q13137); SEC).
For `colistin`, the MIC was no more than 1 µg/mL (Pseudomonas aeruginosa; clinical isolate RKI 25/14).
For `B5 (NECTIN2 32-160)`, binding read “binds” (PVRIG ECD , deglycosylated 41-172 (Homo sapiens, UniProt Q6DKI7); crystal structure).
`B6 (bcsC 24-709)` — result for binding: “binds” (bcsB 26-779 (Escherichia coli, UniProt P37652); cryo-EM).
`B7 (RAD18 267-402)`: binding “binds” (MAGEA4 101-312 E225A (Homo sapiens, UniProt P43358); TR-FRET).
For `CLTB (Bos taurus, UniProt P04975)`, binding read “binds” (CLTC (Bos taurus, UniProt P49951); co-sedimentation; pH 6.5).
Under binding, `RISBZ1 (Oryza sativa, UniProt Q6ZLB0)` is recorded as “binds” (bZIP60 (Oryza sativa, UniProt Q8LIB3); pull-down; in vitro).
`BIN2 (Arabidopsis thaliana, UniProt Q39011)` — result for binding: “binds” (PCK1 S62A/T66A (Arabidopsis thaliana, UniProt Q9T074); BLI; without ATP).
`KESALRKQDLWLLFDPLLR (TACC3 to 568 550-568 S558D/Y560W/K562L (Homo sapiens, UniProt Q9Y6A5); sequence looked up)`: binding “binds” (CLTC 358-574 (Homo sapiens, UniProt Q00610); peptide array; peptide).
`B8 (Pard6b 254-371)` — result for binding: “binds” (LLGL2 13-978, dephosphorylated (Homo sapiens, UniProt Q6P1M3); pull-down).
`B9 (HDAC4 155-220)` — result for binding: “binds” (MEF2A 1-95 (Homo sapiens, UniProt Q02078); SPR).
Under binding, `B10 (BMI1)` is recorded as “binds” (RNF2 (Homo sapiens, UniProt Q99496); SEC).
For `B11 (Notch1 221-526)`, binding read “binds” (DLL4 27-400 N257P/T271L/F280Y/S301R/Q305P (Homo sapiens, UniProt Q9NR61); SPR).
`B12 (gene 32 protein 22-301)`: binding “binds” (Dda helicase (bacteriophage T4, UniProt P32270); EMSA).
For `B13 (tnsD 1-318 K30A/R40D)`, binding read “binds” (tnsC 1-503 (Escherichia coli, UniProt P05846); dynamic light scattering; together with: ATP).
`B14 (INF2 941-1249)` — result for binding: “binds” (INF2 1-420 20-24 to GSGSG (Homo sapiens, UniProt Q27J81); FP).
For `B15`, binding read “binds” (Fem1b (Mus musculus, UniProt Q9Z2G0); pull-down).
Under binding, `B16 (CCDC32)` is recorded as “binds” (Ap2m1 122-435 (Mus musculus, UniProt P84091); pull-down).

Repeated from above:
`B4 (RB1CC1 1450-1594)`: binding “binds” (CALCOCO2 128-316 (Homo sapiens, UniProt Q13137); SEC).
Under binding, `RISBZ1 (Oryza sativa, UniProt Q6ZLB0)` is recorded as “binds” (bZIP60 (Oryza sativa, UniProt Q8LIB3); pull-down; in vitro).
`B8 (Pard6b 254-371)` — result for binding: “binds” (LLGL2 13-978, dephosphorylated (Homo sapiens, UniProt Q6P1M3); pull-down).
